Measured values from different studies.
Every numbered part comes from another study and shows a few of its results, in no order. Changes are numbered by the printed parent chain.

Block 1 — technique: RNA Bind-n-Seq; form: RNA; medium: in vitro; concentration: not given; setting: RNA with constant flanks, ends assumed; baseline: input RNA pool; direction: higher = stronger binding
Target: RING finger protein unkempt homolog, zinc fingers 1-6, GST-SBP tag (UNK, Homo sapiens, UniProt Q9C0B0, residues 30-357)
Residues (chain): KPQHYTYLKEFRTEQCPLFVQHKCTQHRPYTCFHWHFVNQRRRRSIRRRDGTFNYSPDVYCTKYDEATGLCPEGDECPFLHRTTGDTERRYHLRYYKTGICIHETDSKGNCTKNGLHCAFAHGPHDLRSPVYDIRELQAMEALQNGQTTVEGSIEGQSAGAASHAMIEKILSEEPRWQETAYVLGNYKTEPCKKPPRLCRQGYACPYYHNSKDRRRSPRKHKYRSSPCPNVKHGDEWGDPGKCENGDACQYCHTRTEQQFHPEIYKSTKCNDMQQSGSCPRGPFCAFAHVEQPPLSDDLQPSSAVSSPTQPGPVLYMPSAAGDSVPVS
Sequence | bound/input enrichment [ratio]
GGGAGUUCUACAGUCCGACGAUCAACACCAACACAGCAAUUGAACUAAAAUUAGUUCGUUUUCCUGAAGAUCUUGAAAAUGACAUCCGAACUUUCUUUCCUGAGUAUACCCAUCAACUCUUUGGGGAUGAUGAAACUGCUUUUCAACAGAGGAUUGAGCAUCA | 0.112
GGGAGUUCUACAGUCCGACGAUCUAUUUAGUUUUCUGUAGGGUUUUUUGGUUUUGGGGGGGGGGUUGUUUGUUUGUUUGUUGUUUCCGUUUUUGGAAGGAGGGAUGGACUCCACCAGUGUCAGUGUCGGUGUGUCUUAUGUCUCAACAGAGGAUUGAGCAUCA | 4.92
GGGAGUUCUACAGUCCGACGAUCACCCCCCUCUUUCUCCUUGGCUGCAGUGGGGCCUUUAUCCAGUGCCAGGGAGGAACAACACCGUUAAUUUUUUUCUAACCUUGCCACUUUGAGGGAAGGAAGGGUUGGGGGAAGGGCAAGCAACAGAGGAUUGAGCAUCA | 0.323
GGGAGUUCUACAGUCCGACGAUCUAUGUGGAGACAGAAUUGAUAUUUGCACUGGCUAAAACAAACCGCCUUGCAGAAUCCGAAGAGUUCAUCAAUGGGCCAAAUAAUGCUCAUAUUCAGCAAGUUGGUGACCGUUGUUAUGAUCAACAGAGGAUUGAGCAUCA | 0.0937
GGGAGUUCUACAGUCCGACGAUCGAAGAAGCCCAUAAACUCCCAGUAAAACAUUUUACUAAUCCAUAUUGUAACAUCUACCUGAACCGUGUCCAAGUAGCAAAAACUCAUGCAAGGGAAGGGCAAAACCCAGUAUGGUCAGAACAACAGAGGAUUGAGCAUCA | 0.27
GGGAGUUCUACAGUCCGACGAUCCUGGACACCAACAGUGAUGGUCAGCUAGAUUUCUCAGAAUUUCUUAAUCUGAUUGGUGGCCCCGCUAUGGCUUGCCAUGACUCCUUCCUCAAGGCUGUCCCUUCCCAGAAGCGGACCUGACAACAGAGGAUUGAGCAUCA | 0.104
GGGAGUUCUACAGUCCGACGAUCAAGGCCCUGCAGGAGCAGCUCAGUGAGAUUCGGAGUCGAGAAGAAGAGCCGUUUUCAUUUUACCGCGAUCAAACAUCGUAUCUGAGUAUUUGCCUUGAAGAGCACAAUCAGUUCCAAUUGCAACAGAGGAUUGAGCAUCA | 0.292
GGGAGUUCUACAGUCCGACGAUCGCAAAUUUUGCCAGAAAUGAUGCAAAUUGUAUUCAUAUGGUAGACAAUGGGAUUGCCGAAAAACUUAUGGAUUUACUGGACAGACAUGUAGAAGAUGGAAAUGUAACAGUACAGCAUGCACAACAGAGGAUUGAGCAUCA | 0.61

Block 2 — target: CCND2, cyclin fold, Cln2 fusion (human); technique: yeast growth competition, sequencing; medium: yeast; setting: weak parent motif; baseline: not given; direction: higher = stronger binding
Starting sequence: PKMYT1 docking peptide (human); SFEPRNLLSLFED; partner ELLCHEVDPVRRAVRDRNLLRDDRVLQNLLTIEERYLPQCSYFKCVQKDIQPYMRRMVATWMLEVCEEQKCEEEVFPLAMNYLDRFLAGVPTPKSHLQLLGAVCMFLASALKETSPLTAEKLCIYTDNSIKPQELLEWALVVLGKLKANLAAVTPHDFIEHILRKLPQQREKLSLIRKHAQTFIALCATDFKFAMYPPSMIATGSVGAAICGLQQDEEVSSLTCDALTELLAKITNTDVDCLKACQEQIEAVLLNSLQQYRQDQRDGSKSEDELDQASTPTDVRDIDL
Change | normalised enrichment score
SFEPRNLLSAFED [L10A] | -0.416
SFEPRNLRSLFED [L8R] | 0.163
SFEPRNLLRLFED [S9R] | 0.259
SFEPRNLLSDFED [L10D] | 0.216
SFEPRNLLDLFED [S9D] | -0.0865
SFEPRNLLSYFED [L10Y] | -0.132
SFEPRNLLSLFYD [E12Y] | 0.0479
SFEPRNLLSLFCD [E12C] | 0.15
SFELRNLLSLFED [P4L] | 0.0329
SFEPRNLLSLLED [F11L] | 0.11
SFEPRNLHSLFED [L8H] | 0.142
NFEPRNLLSLFED [S1N] | 0.102

Block 3 — technique: RNAcompete; form: RNA; medium: in vitro; concentration: 20 nM; setting: 7-mer, probes averaged, single round; baseline: mean of 7-mers; direction: higher = stronger binding
Target: PABPC1L2, full length, GST fusion (mouse, UniProt A0ABA7IW68)
Target sequence (chain): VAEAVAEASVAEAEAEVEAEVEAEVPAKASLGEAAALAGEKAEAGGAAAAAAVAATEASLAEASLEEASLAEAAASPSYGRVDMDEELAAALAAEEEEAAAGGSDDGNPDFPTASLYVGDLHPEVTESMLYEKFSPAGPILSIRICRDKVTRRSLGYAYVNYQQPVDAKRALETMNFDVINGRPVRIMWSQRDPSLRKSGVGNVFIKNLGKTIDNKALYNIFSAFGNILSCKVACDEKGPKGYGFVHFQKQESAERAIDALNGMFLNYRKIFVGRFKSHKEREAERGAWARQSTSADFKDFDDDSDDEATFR
Sequence | 7-mer Z-score
UCCAAUC | -0.258
UACUUGA | -0.079
UACGUAA | -0.202
AUAGUUA | -0.195
CUAGCGC | -0.242
GGCAUCU | 0.0605
ACGUGCC | -0.142
CCCAUUU | -0.246
UUGCUGA | -0.168
GUAAGCA | 0.111
AAAUGAA | 1.05

Further values, each from its own experiment
Substance | target | test | test system | conditions | scale | endpoint | value
PhoQ, residues 284 288 289 292 302 303 AANNSF | PhoP, residues 12 14 15 18 19 LHATL (Escherichia coli, UniProt P23836) | Sort-seq, measured: YFP reporter | E. coli | PhoQ-PhoP variant library, together with: 10 µM Mg2+ | baseline: high Mg2+ state, higher = stronger signaling | fold induction | 11.7

For quick reference, copied from above (block 2):
Change | normalised enrichment score
SFEPRNLLSYFED [L10Y] | -0.132
SFEPRNLLSLFYD [E12Y] | 0.0479
SFEPRNLLSLFCD [E12C] | 0.15
